{"data": "Results pooled from the literature", "note": "A part holds a random share of what one study measured. Substitutions count along the parent as printed."}
{"data": "Set 1", "target": "Ras GTPase-activating protein-binding protein 1, full length (G3BP1, Homo sapiens, UniProt Q13283)", "method": "RNA Bind-n-Seq", "form": "RNA", "medium": "in vitro", "concentration": "200 nM", "notes": "whole 134-nt RNA, ends assumed", "together with": "150 mM LiCl", "reference": "input library", "reading": "higher = stronger binding", "library": "7-deaza-guanosine replaces G", "constant ends, left off below": "GGGAGUUCUACAGUCCGACGAUC … UGGAAUUCUCGGGUGUCAAGG", "chain of UniProt Q13283 (whole entry, looked up)": "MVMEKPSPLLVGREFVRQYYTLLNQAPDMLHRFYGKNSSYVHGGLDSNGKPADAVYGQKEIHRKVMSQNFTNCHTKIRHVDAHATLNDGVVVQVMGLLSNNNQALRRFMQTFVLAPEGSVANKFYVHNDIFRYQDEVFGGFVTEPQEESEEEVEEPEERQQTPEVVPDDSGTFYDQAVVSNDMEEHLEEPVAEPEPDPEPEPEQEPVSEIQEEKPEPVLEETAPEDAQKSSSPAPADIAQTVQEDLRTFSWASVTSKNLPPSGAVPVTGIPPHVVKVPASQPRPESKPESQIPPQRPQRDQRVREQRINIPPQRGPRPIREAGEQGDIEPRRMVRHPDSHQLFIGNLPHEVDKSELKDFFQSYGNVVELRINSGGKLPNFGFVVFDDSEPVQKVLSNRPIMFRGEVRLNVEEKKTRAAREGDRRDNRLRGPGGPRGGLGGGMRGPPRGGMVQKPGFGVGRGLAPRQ"}
{"Oligonucleotide": "CACAGUCAACACGCACCCACACAGACACAGAGGGAAGGGGUUGGGAUGGGGACAGGGUGCACAGCAGGGCGGGGUAGGACCCCAGCCCCU", "log2 enrichment": 0.282}
{"Oligonucleotide": "AAGUCCUGUGCUACACAUCGUAUGUACCGAAUCGGGUUUUUGGGAAAGGGUUUGGGAAAGUAUUAUGUUACGCCGUUCGGAUCUGCACUU", "log2 enrichment": -1.95}
{"Oligonucleotide": "GUCCUGUGCUACACAUCGUAUGUACCGAAUCGGGAAAGGGAAAAAGGGUUUUUUUGGGAAAGUAUUAUGUUACGCCGUUCGGAUCUGCAC", "log2 enrichment": -0.631}
{"Oligonucleotide": "CUGUGCUACACAUCGUAUGUACCGAAUCGGGUUUUUUUGGGGUUUUUUUGGGUUUUUUUGGGAAAGUAUUAUGUUACGCCGUUCGGAUCU", "log2 enrichment": 1.51}
{"Oligonucleotide": "AAGUCCUGUGCUACACAUCGUAUGUACCGAAUCGGAAAAAAAGGUUUGGUUUUUGGAAAGUAUUAUGUUACGCCGUUCGGAUCUGCACUU", "log2 enrichment": -2.19}
{"Oligonucleotide": "UAACUUUAGAGGAGGAUCUGAUGGAUAUGGCAGUGGACGUGGAUUUGGGGAUGGCUAUAAUGGGUAUGGAGGAGGACCUGGAGGUGCCAA", "log2 enrichment": -0.181}
{"Oligonucleotide": "GUCCUGUGCUACACAUCGUAUGUACCGAAUCGGGGUUUUUGGGUUUUUGGGUUUUUGGGAAAGUAUUAUGUUACGCCGUUCGGAUCUGCA", "log2 enrichment": -0.243}
{"Oligonucleotide": "CACAGACAACACGCACCCAAAAAGACACAGAGGGAAGGGGUUGGGAUGGGGACAGGGUGCACAGCAGGGCGGGGUAGGACCCCAGCCCCU", "log2 enrichment": 0.343}
{"Oligonucleotide": "UCAAGUCCUGUGCUACACAUCGUAUGUACCGAAUCGGCCCGGGCCCGGCCCGGGAAAGUAUUAUGUUACGCCGUUCGGAUCUGCACUUCC", "log2 enrichment": -0.316}
{"Oligonucleotide": "UGGCCCUGGUGGCAUGCGGGGAGGAAGAGGUGGCCUCAUGGAUCGUGGUGGUCCCGGUGGAAUGUUCGGAGGUGGCCGUGGUGGAGACAG", "log2 enrichment": -0.0174}
{"data": "Set 2", "target": "CCND1, cyclin fold, Cln2 fusion (human)", "method": "yeast growth competition, sequencing", "medium": "yeast", "notes": "strong parent motif", "reference": "not given", "reading": "higher = stronger binding", "starting sequence": "RBL2 docking peptide (human); STTRRRLFVENDS"}
{"Change": "STTRRALFVENDS [R6A]", "normalised enrichment score": 1.17}
{"Change": "STTRRRYFVENDS [L7Y]", "normalised enrichment score": -0.0485}
{"Change": "STTRRRLFVINDS [E10I]", "normalised enrichment score": -0.0981}
{"Change": "STTRRVLFVENDS [R6V]", "normalised enrichment score": 1.89}
{"Change": "STTRRRRFVENDS [L7R]", "normalised enrichment score": 0.116}
{"Change": "STTRQRLFVENDS [R5Q]", "normalised enrichment score": 0.781}
{"Change": "STTRRRLFVENFS [D12F]", "normalised enrichment score": -0.0568}
{"Change": "STTFRRLFVENDS [R4F]", "normalised enrichment score": 1}
{"Change": "SETRRRLFVENDS [T2E]", "normalised enrichment score": 1.92}
{"Change": "STTRRRLFVESDS [N11S]", "normalised enrichment score": 0.993}
{"Change": "STTRRRLHVENDS [F8H]", "normalised enrichment score": -0.337}
{"Change": "STTRMRLFVENDS [R5M]", "normalised enrichment score": 1.04}
{"Change": "STTRRQLFVENDS [R6Q]", "normalised enrichment score": 2.17}
{"data": "Single results of other studies"}
{"Molecule": "SNRNP200 (Homo sapiens, UniProt O75643)", "tested on": "ZMAT2 (Homo sapiens, UniProt Q96NC0)", "assay": "cross-linking MS", "system": "cell fractions", "conditions": "together with: DSSO", "endpoint": "cross-linked residues", "value": "T180 to K64"}
{"Molecule": "PhoQ, residues 284 288 289 292 302 303 ALSMDL", "tested on": "PhoP, residues 12 14 15 18 19 LHATL (Escherichia coli, UniProt P23836)", "assay": "Sort-seq, measured: YFP reporter", "system": "E. coli", "conditions": "PhoQ-PhoP variant library, together with: 10 µM Mg2+", "scale": "reference: high Mg2+ state, higher = stronger signaling", "endpoint": "fold induction", "value": 0.681}
{"Molecule": "DDX27 (Homo sapiens, UniProt Q96GQ7)", "tested on": "RBM28 (Homo sapiens, UniProt Q9NW13)", "assay": "cross-linking MS", "system": "cell fractions", "conditions": "together with: DSSO", "endpoint": "cross-linked residues", "value": "K252 to K746"}
